Assay results pooled from the literature.
Compare with care: the assays were run in different laboratories. Numbers after ± are the reported error.
Si: Sucrase-isomaltase, intestinal (Si, Rattus norvegicus, UniProt P23739)
Chain of UniProt P23739 (whole entry, looked up): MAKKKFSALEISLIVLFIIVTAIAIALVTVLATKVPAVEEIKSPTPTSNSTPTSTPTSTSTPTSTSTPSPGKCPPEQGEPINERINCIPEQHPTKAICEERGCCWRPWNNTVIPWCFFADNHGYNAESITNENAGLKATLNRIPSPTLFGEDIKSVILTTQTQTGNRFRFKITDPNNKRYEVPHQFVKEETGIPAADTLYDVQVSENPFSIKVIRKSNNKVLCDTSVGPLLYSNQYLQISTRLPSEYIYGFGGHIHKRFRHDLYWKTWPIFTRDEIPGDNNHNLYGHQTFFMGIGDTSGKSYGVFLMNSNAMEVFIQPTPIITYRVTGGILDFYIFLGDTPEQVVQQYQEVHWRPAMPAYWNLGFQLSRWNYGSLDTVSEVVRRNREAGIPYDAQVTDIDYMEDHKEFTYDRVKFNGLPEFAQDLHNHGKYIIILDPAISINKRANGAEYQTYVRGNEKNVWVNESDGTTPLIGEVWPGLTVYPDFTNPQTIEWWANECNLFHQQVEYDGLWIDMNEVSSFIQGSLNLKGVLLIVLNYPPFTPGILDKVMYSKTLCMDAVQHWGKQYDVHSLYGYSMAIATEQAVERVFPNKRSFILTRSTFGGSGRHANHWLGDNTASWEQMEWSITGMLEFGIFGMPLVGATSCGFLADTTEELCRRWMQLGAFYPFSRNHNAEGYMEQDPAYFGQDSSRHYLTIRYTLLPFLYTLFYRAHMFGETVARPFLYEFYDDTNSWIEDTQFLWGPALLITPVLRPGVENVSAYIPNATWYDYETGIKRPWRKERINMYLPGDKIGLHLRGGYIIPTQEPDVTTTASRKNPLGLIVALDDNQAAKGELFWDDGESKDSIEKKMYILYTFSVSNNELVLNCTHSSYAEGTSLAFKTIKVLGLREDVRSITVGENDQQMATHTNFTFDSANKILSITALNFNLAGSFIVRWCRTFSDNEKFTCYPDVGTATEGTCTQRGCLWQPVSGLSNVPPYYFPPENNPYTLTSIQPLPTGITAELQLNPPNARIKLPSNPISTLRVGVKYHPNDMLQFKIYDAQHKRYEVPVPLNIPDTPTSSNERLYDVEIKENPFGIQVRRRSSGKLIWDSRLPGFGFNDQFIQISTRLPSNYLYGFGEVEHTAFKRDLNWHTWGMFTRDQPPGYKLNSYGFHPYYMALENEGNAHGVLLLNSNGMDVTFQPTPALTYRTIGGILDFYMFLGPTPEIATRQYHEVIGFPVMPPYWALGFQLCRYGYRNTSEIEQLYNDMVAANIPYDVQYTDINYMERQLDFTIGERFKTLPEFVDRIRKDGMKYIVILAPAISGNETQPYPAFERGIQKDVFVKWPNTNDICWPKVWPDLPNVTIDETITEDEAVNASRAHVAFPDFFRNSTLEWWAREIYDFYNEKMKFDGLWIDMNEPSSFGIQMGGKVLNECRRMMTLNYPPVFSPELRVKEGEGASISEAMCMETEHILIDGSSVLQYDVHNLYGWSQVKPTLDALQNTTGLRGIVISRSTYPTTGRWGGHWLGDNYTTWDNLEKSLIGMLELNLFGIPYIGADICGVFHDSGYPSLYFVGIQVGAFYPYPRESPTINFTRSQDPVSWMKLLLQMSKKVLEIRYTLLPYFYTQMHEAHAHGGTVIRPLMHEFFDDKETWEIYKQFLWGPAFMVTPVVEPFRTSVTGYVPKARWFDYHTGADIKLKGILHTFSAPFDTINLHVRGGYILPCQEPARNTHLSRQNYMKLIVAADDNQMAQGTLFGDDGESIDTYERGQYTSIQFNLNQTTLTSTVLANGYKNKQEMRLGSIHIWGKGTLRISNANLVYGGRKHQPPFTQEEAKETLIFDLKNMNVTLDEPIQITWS
Chain of UniProt P21554 (whole entry, unmodified, looked up): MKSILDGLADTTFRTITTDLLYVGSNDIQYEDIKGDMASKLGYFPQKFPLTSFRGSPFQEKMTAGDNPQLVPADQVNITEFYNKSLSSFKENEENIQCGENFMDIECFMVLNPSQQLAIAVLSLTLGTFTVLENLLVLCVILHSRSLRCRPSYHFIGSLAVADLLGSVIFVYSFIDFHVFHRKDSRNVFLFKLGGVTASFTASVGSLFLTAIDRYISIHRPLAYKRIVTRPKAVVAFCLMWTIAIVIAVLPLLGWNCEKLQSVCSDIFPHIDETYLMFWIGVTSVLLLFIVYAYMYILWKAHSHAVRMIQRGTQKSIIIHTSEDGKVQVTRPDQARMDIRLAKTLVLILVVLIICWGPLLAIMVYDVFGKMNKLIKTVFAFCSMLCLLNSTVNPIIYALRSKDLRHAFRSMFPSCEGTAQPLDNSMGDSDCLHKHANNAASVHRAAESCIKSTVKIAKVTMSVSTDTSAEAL
Chain of UniProt Q15910 (whole entry, looked up): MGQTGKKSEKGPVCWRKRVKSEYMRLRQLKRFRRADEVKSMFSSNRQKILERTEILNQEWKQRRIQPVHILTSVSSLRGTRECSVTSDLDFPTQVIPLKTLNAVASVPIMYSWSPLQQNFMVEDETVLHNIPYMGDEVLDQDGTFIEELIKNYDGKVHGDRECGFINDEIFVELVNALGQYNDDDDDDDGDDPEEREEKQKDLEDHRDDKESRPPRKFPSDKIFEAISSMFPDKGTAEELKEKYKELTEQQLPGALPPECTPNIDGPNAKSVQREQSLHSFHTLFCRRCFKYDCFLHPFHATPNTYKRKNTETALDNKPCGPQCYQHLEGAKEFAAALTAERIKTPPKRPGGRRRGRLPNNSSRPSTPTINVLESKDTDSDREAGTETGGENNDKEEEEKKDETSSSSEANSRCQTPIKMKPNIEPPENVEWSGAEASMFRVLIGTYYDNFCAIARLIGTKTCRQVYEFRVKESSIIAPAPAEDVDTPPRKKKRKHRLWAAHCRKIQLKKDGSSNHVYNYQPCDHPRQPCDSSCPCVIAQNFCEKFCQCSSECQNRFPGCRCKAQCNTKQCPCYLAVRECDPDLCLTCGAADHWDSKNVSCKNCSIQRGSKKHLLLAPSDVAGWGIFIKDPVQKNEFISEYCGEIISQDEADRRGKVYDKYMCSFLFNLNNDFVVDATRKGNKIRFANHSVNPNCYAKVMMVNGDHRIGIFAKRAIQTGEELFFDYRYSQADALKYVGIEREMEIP
Chain of UniProt P14416 (whole entry, looked up): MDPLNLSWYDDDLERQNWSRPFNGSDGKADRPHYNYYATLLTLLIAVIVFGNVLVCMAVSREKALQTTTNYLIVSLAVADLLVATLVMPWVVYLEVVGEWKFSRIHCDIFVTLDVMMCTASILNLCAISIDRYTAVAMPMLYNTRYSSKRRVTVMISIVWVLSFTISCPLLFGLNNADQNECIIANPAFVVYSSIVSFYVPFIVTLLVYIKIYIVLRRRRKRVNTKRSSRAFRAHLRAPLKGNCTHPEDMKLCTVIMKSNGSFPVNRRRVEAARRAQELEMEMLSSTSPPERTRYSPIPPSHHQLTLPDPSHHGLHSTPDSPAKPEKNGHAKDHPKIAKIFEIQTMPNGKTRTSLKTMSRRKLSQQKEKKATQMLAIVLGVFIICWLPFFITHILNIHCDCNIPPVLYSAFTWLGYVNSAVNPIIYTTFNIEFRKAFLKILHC
Chain of UniProt P41143 (whole entry, unmodified, looked up): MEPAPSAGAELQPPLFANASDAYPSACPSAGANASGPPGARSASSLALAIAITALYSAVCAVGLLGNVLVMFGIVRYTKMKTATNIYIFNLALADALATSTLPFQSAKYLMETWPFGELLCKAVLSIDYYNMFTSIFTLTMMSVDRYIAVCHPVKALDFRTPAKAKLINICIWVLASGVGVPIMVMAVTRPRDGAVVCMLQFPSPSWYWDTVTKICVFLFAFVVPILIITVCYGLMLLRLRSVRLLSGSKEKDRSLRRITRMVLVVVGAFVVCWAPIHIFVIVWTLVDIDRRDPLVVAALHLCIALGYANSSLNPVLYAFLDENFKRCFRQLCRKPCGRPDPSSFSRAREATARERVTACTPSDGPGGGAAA
Chain of UniProt P31645 (whole entry, unmodified, looked up): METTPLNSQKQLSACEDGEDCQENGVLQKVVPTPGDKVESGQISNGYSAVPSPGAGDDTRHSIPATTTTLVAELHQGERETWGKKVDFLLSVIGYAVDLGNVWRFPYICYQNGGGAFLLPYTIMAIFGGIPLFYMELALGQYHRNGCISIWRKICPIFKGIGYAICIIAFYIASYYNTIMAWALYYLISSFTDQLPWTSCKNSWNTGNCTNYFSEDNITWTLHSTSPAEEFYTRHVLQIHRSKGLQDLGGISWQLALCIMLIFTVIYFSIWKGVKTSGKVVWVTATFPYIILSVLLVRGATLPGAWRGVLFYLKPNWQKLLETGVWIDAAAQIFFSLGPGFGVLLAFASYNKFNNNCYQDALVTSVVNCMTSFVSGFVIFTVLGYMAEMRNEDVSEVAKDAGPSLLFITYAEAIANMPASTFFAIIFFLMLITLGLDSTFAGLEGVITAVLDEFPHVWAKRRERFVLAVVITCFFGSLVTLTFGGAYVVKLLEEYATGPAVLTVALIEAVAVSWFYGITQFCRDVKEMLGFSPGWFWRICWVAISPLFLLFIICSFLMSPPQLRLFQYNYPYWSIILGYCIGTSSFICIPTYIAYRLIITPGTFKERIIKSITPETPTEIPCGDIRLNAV
Chain of UniProt P07948 (whole entry, looked up): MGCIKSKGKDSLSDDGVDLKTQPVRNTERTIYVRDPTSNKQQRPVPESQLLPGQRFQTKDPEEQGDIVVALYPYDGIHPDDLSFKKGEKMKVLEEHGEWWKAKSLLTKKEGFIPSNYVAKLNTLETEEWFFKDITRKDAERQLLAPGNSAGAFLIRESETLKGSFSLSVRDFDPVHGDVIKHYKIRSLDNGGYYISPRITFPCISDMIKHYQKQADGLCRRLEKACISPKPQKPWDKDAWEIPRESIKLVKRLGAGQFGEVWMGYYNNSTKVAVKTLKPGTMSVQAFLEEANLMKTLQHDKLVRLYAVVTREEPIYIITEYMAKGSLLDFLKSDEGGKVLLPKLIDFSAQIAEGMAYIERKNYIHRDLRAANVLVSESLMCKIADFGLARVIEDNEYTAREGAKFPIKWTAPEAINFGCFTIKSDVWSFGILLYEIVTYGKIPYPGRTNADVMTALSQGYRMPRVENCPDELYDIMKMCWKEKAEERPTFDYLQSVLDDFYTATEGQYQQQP

| SMILES | tested on | test | test system | setting | measurement | value |
| --- | --- | --- | --- | --- | --- | --- |
| CCCCCc1cc(OC)c2c(c1)OC(C)(C)c1cc(O)c(C)cc1-2 | Si | enzyme activity, inhibitor, absorbance |  |  | IC50 | 350 µM |
| Cc1ccc2c(C(C[N+](=O)[O-])c3cccs3)c(-c3ccccc3)[nH]c2c1 (stereo not drawn) | Cannabinoid receptor 1 (CNR1, Homo sapiens, UniProt P21554, S199A) | β-arrestin recruitment, agonist, luciferase |  |  | EC50 | 340 nM |
| CCN(CC)C(=O)[C@@H]1C=C2c3cccc4c3c(cn4C(=O)c3ccco3)C[C@H]2N(C)C1 | D(2) dopamine receptor (DRD2, Homo sapiens, UniProt P14416) | ligand displacement, radioligand |  |  | Ki | > 10000 nM |
| CNCc1ccc(-c2cc(Cl)cc(Cl)c2)o1 | D(3) dopamine receptor (DRD3, Homo sapiens, UniProt P35462) | binding |  |  | Ki | 400 nM |
| COc1cc(C)[nH]c(=O)c1CNC(=O)c1c(C)n([C@H](C)[C@H]2CC[C@H](N3CC(OC)C3)CC2)c2ccccc12 | Histone-lysine N-methyltransferase EZH2, PRC2 pentameric complex (EZH2, Homo sapiens, UniProt Q15910) | enzyme activity, inhibitor |  | added: H3K27me3 activating peptide | IC50 | 0.00028 µM |
| COc1ccccc1C(C[N+](=O)[O-])c1c(-c2ccccc2)[nH]c2ccccc12 (stereo not drawn) | Cannabinoid receptor 1 (CNR1, Homo sapiens, UniProt P21554, I245F) | G protein activation, agonist, BRET |  |  | EC50 | 1400 nM |
| CC(C)CC(C(=O)N1CC2(CC1C#N)C(=O)Nc1ccccc12)N(C)C(=O)c1cc2c(F)cc(F)c(F)c2[nH]1 (stereo not drawn) | Transmembrane protease serine 2 (TMPRSS2, Homo sapiens, UniProt O15393) | enzyme activity, inhibitor |  |  | IC50 | > 100 µM |
| CCC[C@@H](C(=O)c1ccccc1)N1CCCC1 | Sodium-dependent serotonin transporter (SLC6A4, Homo sapiens, UniProt P31645, Y95F) | transporter uptake, inhibitor, radiometric |  |  | Ki | 126000 nM |
| CCCCCc1cc(O)c2c(c1)OC(C)(C)c1cc(O)c(C)cc1-2 | Si | enzyme activity, inhibitor, absorbance |  |  | IC50 | 90 µM |
| Nc1ncnc2c1c(-c1cnc3[nH]ccc3c1)nn2C1CCCC1 | Tyrosine-protein kinase Lyn (LYN, Homo sapiens, UniProt P07948) | enzyme activity, inhibitor |  |  | Ki | 9.1 nM |
| CCN(CC)C(=O)c1ccc(C(c2cccc(O)c2)N2CC(C)N(Cc3ccccc3)CC2C)cc1 (stereo not drawn) | Delta-type opioid receptor (OPRD1, Homo sapiens, UniProt P41143, I277A) |  |  |  | Ki | 0.63 ± 0.27 nM |
| O=C1NC2(CC2)COc2ncc(F)cc2[C@H]2COCCN2c2ccn3ncc1c3n2 |  |  | Sprague-Dawley rat, male, adrenals | oral, 2.5 mg/kg/day, 4 weeks, end of treatment | organ-to-body weight ratio | 0.017 ± 0.003% |
| CC(=O)O[C@@H]1[C@H]2[C@@H](OC(=O)Cc3ccccc3)[C@@H](C)C[C@]2(OC(C)=O)C(=O)/C(C)=C/[C@@H]2[C@H](CC[C@@]13CO3)C2(C)C | Regulator of chromosome condensation (Homo sapiens, UniProt P18754) | binding, SPR |  |  | Kd | 2.51 µM |
| CCCCCc1cc(O)c2c(c1)OC(C)(C)[C@@H]1CCC(C)=C[C@@H]21 | Si | enzyme activity, inhibitor, absorbance |  |  | IC50 | 420 µM |
| CC[C@H](C)[C@H](NC(=O)[C@H](CO)NC(=O)[C@H](CC(N)=O)NC(=O)[C@H](CC(C)C)NC(=O)[C@H](Cc1ccc(O)cc1)NC(=O)[C@H](CCCCN)NC(=O)[C@H](CCCCN)NC(=O)[C@@H](NC(=O)[C@H](C)NC(=O)[C@H](CCSC)NC(=O)[C@H](CCC(N)=O)NC(=O)[C@H](CCCCN)NC(=O)[C@H](CCCN=C(N)N)NC(=O)[C@H](CC(C)C)NC(=O)[C@H](CCCN=C(N)N)NC(=O)[C@@H](NC(=O)[C@H](Cc1ccc(O)cc1)NC(=O)[C@H](CC(N)=O)NC(=O)[C@H](CC(=O)O)NC(=O)[C@@H](NC(=O)[C@H](Cc1ccccc1)NC(=O)[C@@H](NC(=O)[C@H](C)NC(=O)[C@H](CC(=O)O)NC(=O)[C@H](CO)NC(=O)[C@@H](N)Cc1c[nH]cn1)C(C)C)[C@@H](C)O)[C@@H](C)O)C(C)C)C(=O)N[C@@H](CC(C)C)C(=O)N[C@@H](CC(N)=O)C(N)=O | Pituitary adenylate cyclase-activating polypeptide type I receptor (ADCYAP1R1, Homo sapiens, UniProt P41586, del89-109) | calcium signal, agonist, fluorescence |  |  | EC50 | 20.9 nM |
| O=[N+]([O-])CC(c1cccs1)c1c(-c2ccccc2)[nH]c2ccccc12 (stereo not drawn) | Cannabinoid receptor 1 (CNR1, Homo sapiens, UniProt P21554) | β-arrestin recruitment, agonist, luciferase |  |  | EC50 | 6510 nM |
| c1ccc2c(c1)nc(CNCC13CC4CC(CC(C4)C1)C3)n2CC1CCCCC1 | Penicillin-binding protein 2X (Streptococcus pneumoniae R6, UniProt P59676) | binding, MST |  |  | Kd | 120 µM |
| CCCCCn1cc(C(=O)c2cccc3c2CC(C)(C)C3)c2ccccc21 | Cannabinoid receptor 2 (CNR2, Homo sapiens, UniProt P34972, L182I) | cAMP, agonist, BRET |  |  | EC50 | 1.62 nM |
